Experimental data pooled from the literature.
Protocols differ between the studies behind these lines. “And” joins repeats or separate records; there may be more than shown. Numbers after ± are the reported error.
UniProt P20231, sequence (whole entry, looked up): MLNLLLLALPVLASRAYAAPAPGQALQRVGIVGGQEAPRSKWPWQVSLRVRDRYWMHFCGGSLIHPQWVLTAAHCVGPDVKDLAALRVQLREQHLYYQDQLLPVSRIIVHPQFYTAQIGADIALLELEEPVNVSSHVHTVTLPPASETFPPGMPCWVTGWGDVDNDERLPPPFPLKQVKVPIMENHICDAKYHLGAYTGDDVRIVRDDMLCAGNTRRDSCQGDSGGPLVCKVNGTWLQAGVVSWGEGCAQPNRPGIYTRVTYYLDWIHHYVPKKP
UniProt O43148, sequence (whole entry, looked up): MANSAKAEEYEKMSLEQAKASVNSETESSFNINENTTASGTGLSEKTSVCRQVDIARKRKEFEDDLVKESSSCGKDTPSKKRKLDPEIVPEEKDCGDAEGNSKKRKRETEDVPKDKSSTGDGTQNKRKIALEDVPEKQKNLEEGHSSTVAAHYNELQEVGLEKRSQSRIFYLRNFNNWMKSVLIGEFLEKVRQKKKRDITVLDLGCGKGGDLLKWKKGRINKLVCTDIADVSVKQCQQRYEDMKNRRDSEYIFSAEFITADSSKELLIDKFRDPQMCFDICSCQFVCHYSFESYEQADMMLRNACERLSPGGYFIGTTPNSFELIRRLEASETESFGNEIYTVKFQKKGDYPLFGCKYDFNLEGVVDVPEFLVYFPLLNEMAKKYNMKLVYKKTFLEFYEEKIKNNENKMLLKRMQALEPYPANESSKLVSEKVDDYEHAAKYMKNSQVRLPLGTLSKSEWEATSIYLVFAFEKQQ
UniProt P15309, sequence (whole entry, looked up): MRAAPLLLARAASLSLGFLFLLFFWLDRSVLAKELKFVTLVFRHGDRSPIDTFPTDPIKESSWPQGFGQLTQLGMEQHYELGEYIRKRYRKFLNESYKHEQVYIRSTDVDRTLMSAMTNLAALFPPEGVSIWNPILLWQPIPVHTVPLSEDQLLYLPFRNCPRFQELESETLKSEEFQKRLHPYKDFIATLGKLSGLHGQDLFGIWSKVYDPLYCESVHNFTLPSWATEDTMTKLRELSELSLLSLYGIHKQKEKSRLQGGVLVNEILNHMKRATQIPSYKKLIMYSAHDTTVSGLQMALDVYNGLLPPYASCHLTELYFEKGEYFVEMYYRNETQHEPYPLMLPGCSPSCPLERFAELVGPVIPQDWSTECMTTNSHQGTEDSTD
UniProt Q92769, sequence (whole entry, looked up): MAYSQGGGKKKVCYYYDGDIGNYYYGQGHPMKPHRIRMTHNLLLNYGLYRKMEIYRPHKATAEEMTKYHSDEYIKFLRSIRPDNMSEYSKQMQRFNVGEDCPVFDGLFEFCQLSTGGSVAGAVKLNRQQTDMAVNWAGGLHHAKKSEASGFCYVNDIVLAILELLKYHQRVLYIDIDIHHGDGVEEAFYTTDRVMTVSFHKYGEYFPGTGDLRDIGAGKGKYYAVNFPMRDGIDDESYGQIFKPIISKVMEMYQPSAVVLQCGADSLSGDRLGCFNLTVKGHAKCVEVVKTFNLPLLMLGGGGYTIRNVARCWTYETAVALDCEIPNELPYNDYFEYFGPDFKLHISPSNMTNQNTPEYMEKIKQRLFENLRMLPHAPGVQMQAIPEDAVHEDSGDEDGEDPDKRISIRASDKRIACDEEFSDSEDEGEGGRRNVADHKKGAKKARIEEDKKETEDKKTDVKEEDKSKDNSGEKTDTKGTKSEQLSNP
UniProt Q15561, sequence (whole entry, looked up): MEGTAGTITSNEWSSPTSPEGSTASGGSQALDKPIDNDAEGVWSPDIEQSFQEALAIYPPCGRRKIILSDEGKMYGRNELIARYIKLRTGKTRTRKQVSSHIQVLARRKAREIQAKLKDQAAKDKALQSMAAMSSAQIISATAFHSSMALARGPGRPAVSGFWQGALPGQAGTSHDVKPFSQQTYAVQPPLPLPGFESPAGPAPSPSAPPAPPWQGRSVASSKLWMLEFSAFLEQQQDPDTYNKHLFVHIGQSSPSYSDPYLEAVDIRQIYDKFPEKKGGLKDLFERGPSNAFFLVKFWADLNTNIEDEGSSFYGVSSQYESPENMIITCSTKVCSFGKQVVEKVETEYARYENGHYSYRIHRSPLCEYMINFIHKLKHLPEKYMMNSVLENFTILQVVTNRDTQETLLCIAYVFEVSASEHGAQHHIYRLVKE
UniProt Q8WXS5, sequence (whole entry, looked up): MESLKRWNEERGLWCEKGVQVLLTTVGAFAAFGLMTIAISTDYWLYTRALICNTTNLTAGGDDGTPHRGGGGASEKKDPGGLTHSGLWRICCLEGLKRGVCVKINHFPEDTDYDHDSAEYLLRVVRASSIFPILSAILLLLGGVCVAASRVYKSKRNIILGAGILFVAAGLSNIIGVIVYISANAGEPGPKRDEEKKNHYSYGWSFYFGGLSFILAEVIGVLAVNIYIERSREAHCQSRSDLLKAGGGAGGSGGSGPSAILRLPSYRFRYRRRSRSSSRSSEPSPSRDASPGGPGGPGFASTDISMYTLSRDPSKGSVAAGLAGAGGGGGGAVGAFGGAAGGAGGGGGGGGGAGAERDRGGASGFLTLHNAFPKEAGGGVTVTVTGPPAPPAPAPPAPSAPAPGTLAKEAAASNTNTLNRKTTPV
UniProt P42261, sequence (whole entry, looked up): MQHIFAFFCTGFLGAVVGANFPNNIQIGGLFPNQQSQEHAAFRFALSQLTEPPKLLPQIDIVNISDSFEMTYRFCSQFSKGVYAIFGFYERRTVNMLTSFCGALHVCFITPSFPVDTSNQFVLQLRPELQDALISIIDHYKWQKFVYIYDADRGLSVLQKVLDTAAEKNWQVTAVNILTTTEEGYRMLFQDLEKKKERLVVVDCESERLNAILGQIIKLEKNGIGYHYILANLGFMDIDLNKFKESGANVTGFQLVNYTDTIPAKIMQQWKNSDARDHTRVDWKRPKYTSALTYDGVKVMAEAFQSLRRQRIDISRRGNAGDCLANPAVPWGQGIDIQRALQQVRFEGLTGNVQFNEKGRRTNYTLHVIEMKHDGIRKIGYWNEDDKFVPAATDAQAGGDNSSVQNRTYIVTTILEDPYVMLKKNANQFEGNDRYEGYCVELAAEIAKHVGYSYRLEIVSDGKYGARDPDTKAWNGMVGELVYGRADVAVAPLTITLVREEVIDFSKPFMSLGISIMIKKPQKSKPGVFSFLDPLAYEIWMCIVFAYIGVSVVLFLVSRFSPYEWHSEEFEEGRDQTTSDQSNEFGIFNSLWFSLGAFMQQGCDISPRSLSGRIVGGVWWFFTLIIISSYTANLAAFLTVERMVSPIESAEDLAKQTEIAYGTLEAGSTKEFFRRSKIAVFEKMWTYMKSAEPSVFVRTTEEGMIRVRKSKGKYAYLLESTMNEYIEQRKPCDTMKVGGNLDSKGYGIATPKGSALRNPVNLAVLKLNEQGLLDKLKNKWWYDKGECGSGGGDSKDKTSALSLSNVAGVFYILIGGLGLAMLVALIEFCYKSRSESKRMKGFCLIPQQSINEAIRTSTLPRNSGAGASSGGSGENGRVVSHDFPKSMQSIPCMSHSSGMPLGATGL
UniProt Q8E0N2, sequence (whole entry, looked up): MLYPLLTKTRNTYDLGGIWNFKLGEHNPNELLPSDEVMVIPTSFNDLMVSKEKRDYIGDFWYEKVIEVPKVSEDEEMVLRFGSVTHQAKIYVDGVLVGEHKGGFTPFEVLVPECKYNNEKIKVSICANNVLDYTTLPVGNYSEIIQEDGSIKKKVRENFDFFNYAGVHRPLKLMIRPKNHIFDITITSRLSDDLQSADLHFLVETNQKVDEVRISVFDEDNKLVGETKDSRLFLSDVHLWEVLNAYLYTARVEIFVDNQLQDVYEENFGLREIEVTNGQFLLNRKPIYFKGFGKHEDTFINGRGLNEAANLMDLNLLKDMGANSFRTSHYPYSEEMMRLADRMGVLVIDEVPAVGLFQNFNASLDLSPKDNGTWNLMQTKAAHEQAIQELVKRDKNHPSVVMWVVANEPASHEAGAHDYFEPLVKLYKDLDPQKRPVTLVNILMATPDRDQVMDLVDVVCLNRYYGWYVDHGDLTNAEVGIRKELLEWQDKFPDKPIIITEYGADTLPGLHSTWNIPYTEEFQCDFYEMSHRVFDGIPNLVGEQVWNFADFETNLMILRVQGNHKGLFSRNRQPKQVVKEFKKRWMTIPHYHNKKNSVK
UniProt Q9HBA0, sequence (whole entry, unmodified, looked up): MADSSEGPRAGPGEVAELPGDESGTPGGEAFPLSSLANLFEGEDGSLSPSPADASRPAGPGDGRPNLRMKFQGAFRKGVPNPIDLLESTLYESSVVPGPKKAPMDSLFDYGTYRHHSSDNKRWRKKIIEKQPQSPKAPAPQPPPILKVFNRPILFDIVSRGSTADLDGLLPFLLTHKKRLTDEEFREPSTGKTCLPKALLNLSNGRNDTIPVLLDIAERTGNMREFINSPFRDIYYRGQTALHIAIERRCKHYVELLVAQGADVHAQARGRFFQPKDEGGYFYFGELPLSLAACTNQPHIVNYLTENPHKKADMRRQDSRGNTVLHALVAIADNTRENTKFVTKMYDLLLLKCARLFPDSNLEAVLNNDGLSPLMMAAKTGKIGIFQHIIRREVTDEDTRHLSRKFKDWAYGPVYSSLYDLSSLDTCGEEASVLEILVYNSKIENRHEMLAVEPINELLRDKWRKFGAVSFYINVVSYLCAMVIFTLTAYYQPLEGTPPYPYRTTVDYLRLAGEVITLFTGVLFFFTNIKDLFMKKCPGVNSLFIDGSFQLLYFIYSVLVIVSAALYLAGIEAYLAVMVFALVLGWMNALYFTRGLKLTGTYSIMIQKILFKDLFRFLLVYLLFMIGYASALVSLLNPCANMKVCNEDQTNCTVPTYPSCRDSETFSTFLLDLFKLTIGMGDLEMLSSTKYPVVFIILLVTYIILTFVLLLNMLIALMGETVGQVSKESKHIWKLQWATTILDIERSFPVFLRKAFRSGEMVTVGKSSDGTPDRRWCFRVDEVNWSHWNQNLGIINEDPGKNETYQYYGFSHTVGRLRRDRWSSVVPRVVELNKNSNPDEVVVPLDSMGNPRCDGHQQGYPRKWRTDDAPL

Compound	target	test	test system	setting	IC50
OC[C@H]1O[C@@H](Oc2cc3c(O)cc(O)cc3[o+]c2-c2ccc(O)c(O)c2)[C@H](O)[C@@H](O)[C@@H]1O	mRNA cap guanine-N(7) methyltransferase, with RAM (RNMT, Homo sapiens, UniProt O43148)	N7-methyltransferase activity, inhibitor, Py-FLINT		RNMT-RAM complex, with: SAM 20 µM	5.25 ± 0.58 µM
CC[C@H](C)[C@H](NC(=O)[C@H](CCC(=O)O)NC(=O)[C@H](C)NC(=O)[C@H](CCCCN)NC(=O)[C@H](CC(C)C)NC(=O)[C@@H](NC(=O)[C@H](CCC(=O)O)NC(=O)[C@H](C)NC(=O)[C@H](CCC(=O)O)NC(=O)[C@H](CC(=O)O)NC(=O)[C@H](C)NC(C)=O)C(C)C)C(=O)N[C@H]1CSCc2cccc(c2)CSC[C@@H](C(=O)N[C@@H](CCC(N)=O)C(=O)N[C@H](C(=O)N[C@@H](CCC(N)=O)C(=O)N[C@@H](CCC(=O)O)C(=O)N[C@@H](CCC(=O)O)C(=O)N[C@@H](CC(=O)O)C(=O)N2CCC[C@H]2C(=O)N[C@@H](CC(N)=O)C(=O)NCCC(=O)N[C@@H](CCCCNC(=O)CCCC[C@@H]2SC[C@@H]3NC(=O)N[C@@H]32)C(N)=O)C(C)C)NC(=O)[C@H](C(C)C)NC(=O)[C@H](C)NC(=O)[C@H](CCCCN)NC1=O	Protein max, homodimer bound to E-box (MAX, Homo sapiens, UniProt P61244)	DNA binding, EMSA		with: DNA 40 nM	2.25 ± 1.93 µM
N#CCc1cccc(Cl)c1-c1ccc2[nH]c(=O)[nH]c2c1	GRIA1/CACNG8 (Homo sapiens, UniProt P42261+Q8WXS5)	glutamate-induced calcium flux, inhibitor, FLIPR	HEK293 cells		0.0195 µM
CCn1c(-c2ccc(-c3ccc(F)cc3)cc2)c(-c2ccc(-c3ccc(F)cc3)cc2)n(CC)c1=[Se+][Au-][P+](CC)(CC)CC.Cl	thioredoxin reductase (Acinetobacter baumannii, UniProt A0A0G4QN87)	enzyme activity, inhibitor		with: DTNB	5.08 µM
CCCOc1ccc2ccccc2c1/C=C/c1nc(O)c([N+](=O)[O-])c(=O)[nH]1	ACP3 (Homo sapiens, UniProt P15309)	enzyme activity, inhibitor			6.7 µM
N=C(N)NC(=O)c1ccc(C(=O)NCCCC[C@H](NC(=O)[C@H](Cc2c[nH]c3ccccc23)NC(=O)[C@H](CCCCN)NC(=O)CNC(=O)CCC(=O)NN)C(N)=O)[nH]1	Tryptase beta-2 (TPSB2, Homo sapiens, UniProt P20231)			pH 7.4	23.6 µM and ~25 µM
C1CCN(c2nnnc3c2sc2nc(N4CCOCC4)c4c(c23)CCCC4)CC1	Beta-glucuronidase (Streptococcus agalactiae serotype V, UniProt Q8E0N2)		Streptococcus agalactiae		> 100 µM
Cn1c(=O)c2cc(C(=O)NCCCN3CCCCCC3)sc2c2ccccc21	Bifunctional FPP/GGPP synthase (Plasmodium falciparum, UniProt Q8II79)	FPP production, inhibitor		saturating substrate	2 µM
CC(C)[C@H](NC(=O)c1ccc(CNc2nc3c(c(=O)[nH]2)CCC3)cc1)C(=O)NC1CNC1	MMP14 (Homo sapiens, UniProt P50281)	enzyme activity, inhibitor			> 5 µM
O=C(CCCCCCC(=O)Nc1cccc(N=Nc2ccccc2)c1)NO	HDAC2 (Homo sapiens, UniProt Q92769)	enzyme activity, inhibitor		trans isomer	0.012 ± 0.002 µM
Cc1c(C(=O)Nc2cccc(C(F)(F)F)c2)cc(-c2ccccc2)n1CCCN1CCOCC1	TRPV4 (Homo sapiens, UniProt Q9HBA0, D546A)	calcium signal			0.499 µM
N#CC1=C(N)OC2=C(c3sc(N)c(C#N)c3CC2)C1c1ccccc1Cl (centres unmarked)	RNMT (Homo sapiens, UniProt O43148)	enzyme activity, inhibitor			80.4 µM
CN[C@H](CC(C)C)C(=O)N[C@H]1C(=O)N[C@@H](CC(N)=O)C(=O)N[C@H]2C(=O)N[C@H]3C(=O)N[C@H](C(=O)N[C@H](C(=O)O)c4cc(O)cc(O)c4-c4cc3ccc4O)[C@H](O)c3ccc(c(Cl)c3)Oc3cc2cc(c3O[C@@H]2O[C@H](CO)[C@@H](O)[C@H](O)[C@H]2O[C@H]2C[C@](C)(NCc3ccc(C(=O)OCCCCCCN(Cc4ccccn4)Cc4ccccn4)cc3)[C@H](O)[C@H](C)O2)Oc2ccc(cc2Cl)[C@H]1O	VIM-1 (Pseudomonas aeruginosa, UniProt A0A0F7KYQ8)	enzyme activity, inhibitor, fluorescence			3.6 µM
CC[C@H](C)[C@H](NC(=O)[C@H](Cc1c[nH]cn1)NC(=O)[C@H](Cc1ccc(O)cc1)NC(=O)[C@H](CCC(N)=O)NC(=O)[C@H](CC(N)=O)NC(=O)[C@H](CO)NC(=O)[C@H](CCC(=O)O)NC(=O)[C@H](CO)NC(=O)[C@H](CCC(N)=O)NC(=O)[C@H](CO)NC(=O)[C@H](CCCNC(=N)N)NC(=O)[C@H](CC(N)=O)NC(=O)[C@H](Cc1c[nH]cn1)NC(C)=O)C(=O)N[C@@H](CO)C(=O)N[C@@H](CCC(N)=O)C(=O)N1CCC[C@H]1C(=O)N[C@@H](CO)C(=O)N[C@@H](CC(C)C)C(=O)N[C@@H](CC(=O)O)C(=O)N[C@@H](CO)C(=O)N[C@@H](CC(C)C)C(=O)N[C@@H](Cc1c[nH]cn1)C(=O)N[C@@H](CO)C(=O)N[C@H](C(=O)N[C@@H](CC(C)C)C(=O)N[C@@H](CO)C(=O)N[C@@H](CCSC)C(=O)N1CCC[C@H]1C(=O)N1CCC[C@H]1C(=O)N[C@@H](CC(C)C)C(=O)N[C@@H](CCCNC(=N)N)C(=O)N[C@@H](CC(=O)O)C(=O)N[C@@H](CCCNC(=N)N)C(=O)N[C@@H](CC(N)=O)C(=O)N[C@@H](CC(C)C)C(=O)N1CCC[C@H]1C(=O)N[C@@H](C)C(=O)N[C@@H](CO)C(=O)N[C@@H](Cc1ccccc1)C(=O)N[C@@H](Cc1ccccc1)C(=O)N[C@@H](CCCNC(=N)N)C(=O)N[C@@H](CO)C(=O)N1CCC[C@H]1C(N)=O)[C@@H](C)O	TEAD4 (Homo sapiens, UniProt Q15561)	protein-protein interaction, inhibitor, TR-FRET			107 µM

Some of these lines once more:
Compound	target	test	test system	setting	IC50
CCn1c(-c2ccc(-c3ccc(F)cc3)cc2)c(-c2ccc(-c3ccc(F)cc3)cc2)n(CC)c1=[Se+][Au-][P+](CC)(CC)CC.Cl	thioredoxin reductase (Acinetobacter baumannii, UniProt A0A0G4QN87)	enzyme activity, inhibitor		with: DTNB	5.08 µM
CCCOc1ccc2ccccc2c1/C=C/c1nc(O)c([N+](=O)[O-])c(=O)[nH]1	ACP3 (Homo sapiens, UniProt P15309)	enzyme activity, inhibitor			6.7 µM
